Assay results of several laboratories.
± marks the error that the study gave.

Cc1c(C(=O)O)ccc2c3n(nc12)[C@@H]1[C@H](C3)N(CC2CC2)[C@@]2(C(=O)Nc3cc(Cl)ccc32)[C@H]1c1cccc(Cl)c1F has a Cmax of 2210 nM (female BALB/c nude mice, SJSA-1 xenograft, plasma; oral, 2 mg/kg once daily, mean).
CCc1nc(C(N)=O)c(Nc2ccc(N3CCC(N4CCN(C)CC4)CC3)c(OC)c2)nc1NC1CCOCC1 has a Cmax of 406 ± 41 ng/mL (female FVB mice, OCT1/2 knockout, plasma; oral, 10 mg/kg, single dose).
Cn1c(C(F)(F)F)cc(=O)n(-c2cc(Oc3cccnc3OCC(=O)O)c(Cl)cc2F)c1=O gave a Cmax of 332 ng/mL (Crl:CD1(ICR) mice, male, plasma; oral diet, 100 ppm in diet, day 1, 90-day toxicity study).
The Cmax of CNC(=O)c1cc(Oc2ccc(NC(=O)Nc3ccc(Cl)c(C(F)(F)F)c3)cc2)ccn1 is reported as 4090 ng/mL (female wild-type DBA1/lacJ mice, plasma; oral, 10 mg/kg, geometric mean, with: rifampin 20 mg/kg i.v.).
CCN1CCN(Cc2ccc(NC(=O)c3ccc(C)c(NC(=O)c4cncc(-c5cccs5)c4)c3)cc2C(F)(F)F)CC1 gave a Cmax of 2110 ng/mL (C57BL/6 mice, epithelial lining fluid; intraperitoneal, 15 mg/kg).
CC[C@@]1(O)C(=O)OCc2c1cc1n(c2=O)Cc2c-1nc1cc(F)c(C)c3c1c2[C@@H](N)CC3 has a Cmax ratio of greater than 1.7 (measured: free payload; BALB/c nude mice, NCI-H1975 xenograft, tumour; intravenous, 10 mg/kg; reference: compound over DXd).
CC(C)(C)c1ccc(O)c(CN(Cc2cc(C(C)(C)C)ccc2O)C2CCC(NC(N)=O)CC2)c1 (centres unmarked): “Cmax fold increase” 1.7 fold (C57BL/6 mice, male, brain; intraperitoneal, 10 mg/kg; reference: 5 mg/kg dose).
The Cmax increase of O=C(O)C[C@H](O)C[C@H](O)/C=C/c1c(C2CC2)nc2ccccc2c1-c1ccc(F)cc1 is reported as 4.59 fold (FVB wild-type mice, plasma; oral, dose not given, with: rifampicin 20 mg/kg; reference: vehicle).
